Measured values gathered from unrelated publications.
Each line is one published result; not all experiments were run side by side. Values joined by “and” are separate records of one study, mostly repeats; a detail may differ.
Chain of UniProt P05177 (whole entry, looked up): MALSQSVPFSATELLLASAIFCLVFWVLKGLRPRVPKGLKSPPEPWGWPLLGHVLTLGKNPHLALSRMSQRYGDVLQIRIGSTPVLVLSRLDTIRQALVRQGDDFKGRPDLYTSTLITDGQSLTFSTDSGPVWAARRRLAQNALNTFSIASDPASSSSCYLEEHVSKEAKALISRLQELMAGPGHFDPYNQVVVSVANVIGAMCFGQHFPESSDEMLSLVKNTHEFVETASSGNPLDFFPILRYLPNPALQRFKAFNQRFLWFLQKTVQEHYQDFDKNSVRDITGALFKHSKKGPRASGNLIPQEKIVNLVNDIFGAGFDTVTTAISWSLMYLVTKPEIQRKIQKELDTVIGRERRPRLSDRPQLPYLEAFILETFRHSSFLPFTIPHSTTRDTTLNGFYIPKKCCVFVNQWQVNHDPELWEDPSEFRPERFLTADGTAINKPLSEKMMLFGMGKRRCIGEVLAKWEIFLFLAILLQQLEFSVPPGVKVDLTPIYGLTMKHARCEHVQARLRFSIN

| SMILES | target or system | test | test system | conditions | scale | quantity | result |
| --- | --- | --- | --- | --- | --- | --- | --- |
| CC(C)OCCOCc1ccc(OCC(O)CN(N=O)C(C)C)cc1 (stereo not drawn) | Salmonella typhimurium | Ames test | TA1535 | 50 µg/plate, 30 % rat S9 | relative to: solvent control | revertant fold increase | 0.9 fold |
| COc1cccc(OC)c1-c1cc(C(=O)NC2(C(=O)O)C3CC4CC(C3)CC2C4)nn1-c1ccc(C(=O)NCCNC(=O)[C@H](CCCCNC(=O)[C@H](CC(C)C)NC(=O)C2OC2C(=O)O)NC(=O)CN2CCN(CC(=O)[O-])CCN(CC(=O)[O-])CCN(CC(=O)[O-])CC2)cc1C(C)C.[177Lu+3] (mixture of isomers) | HT-29 tumour model |  | host not given, bone | 72 h, tumour-bearing |  | tracer uptake | 0.05 %ID/g |
| Cc1ncsc1-c1ccc(C(C)NC(=O)C2CC(O)CN2C(=O)C(NC(=O)CCCCCCCCCCN2CCCC(Nc3ncc(Cl)c(Nc4ccccc4S(=O)(=O)C(C)C)n3)C2)C(C)(C)C)cc1 (stereo not drawn) | 22Rv1 | RNA-seq, refers to: ZNF585B mRNA |  | concentration not given | relative to: DMSO | log2 fold change | -1.67 |
| O=C(Sc1cccccc1=O)c1cccc(OC(F)(F)F)c1 | HepDES19 | cell growth or viability, MTS |  | 72 h |  | CC50 | 100 µM |
| C=CC(=O)Nc1cccc(Cn2ncc3cnc(Nc4cnn(CCOC)c4)nc32)c1 | MYO3B human | binding, KINOMEscan |  | 100 nM | lower = stronger binding | percent of control | 57% |
| O=C(Oc1cccccc1=O)c1ccc(Cl)cc1 | HepDES19 | cell growth or viability, MTS |  | 72 h |  | CC50 | 99.5 µM |
| O=C1C2CC3CC1CC(C(=O)N1CCN(c4ccc([N+](=O)[O-])c5ncccc45)CC1)(C3)C2 | Salmonella typhimurium | Ames test | TA100 | 0.05 µg/well, with S9 |  | mean revertant colonies | 26 colonies/well |
| CNC(=O)C1CCCN(C(=O)C2CC3CCC2N3C(=O)[C@@H]2C[C@@H](O)CN2C(=O)NCc2cccc(Cl)c2F)C1 (mixture of isomers) | Cytochrome P450 1A2 (CYP1A2, Homo sapiens, UniProt P05177) | preincubation with NADPH | human | 0.0686 µM | relative to: negative control | remaining activity | 99.4% and 94.8% and 98.2% |
| Nc1ncc(-c2cc(-c3cnn(CC(F)(F)F)c3)ncc2F)nc1C(=O)NC1CNCC(F)C1 (stereo not drawn) | TRKC | KINOMEscan competition binding |  | 1 µM | relative to: DMSO control | remaining binding | 100% |
| C=C(NC(=O)c1csc(-c2nc3c(cc2O)-c2nc(cs2)C(=O)NC(C(C)O)C(=O)NC(=C(C)OC)c2nc(cs2)C(=O)NC2c4nc(cs4)C(=O)NC(COC(=O)c4c5c6c(cccc6n4O)COC(=O)C(OC4CC(C)(O)C(N(C)C)C(C)O4)C2OC5)c2nc-3cs2)n1)C(N)=O (stereo not drawn) |  |  | cynomolgus monkey, female, plasma | intravenous infusion, 1.5 mg/kg twice daily, 0 to 30 h |  | AUC(0-inf) | 26300 ng·h/mL |
| CCN(CC)CC#CCNc1ccnc2cc(Cl)ccc12 | Salmonella typhimurium | mini-Ames test | TA102 | 250.0 µg/well, with rat liver S9 |  | revertants | 80 revertants/well and 83 revertants/well |
| COC1CN([C@H]2CC[C@H]([C@@]3(C)Oc4c(Cl)cc(C(=O)NCc5c(SC)cc(C)[nH]c5=O)c(C)c4O3)CC2)C1 |  | RNA-seq, refers to: KHDRBS3 mouse homolog | mouse, HT-1376 xenograft, whole blood | dose not given | relative to: vehicle | log2 fold change | 3.6 |
| COc1ccc(Cl)cc1C(=O)Sc1cccccc1=O | HepDES19 | cell growth or viability, MTS |  | 72 h |  | CC50 | 22.8 µM |
| Nc1nc2cc(C(=O)c3ccc(F)cc3)ccc2[nH]1 | Escherichia coli | Ames preincubation test | WP2 uvrA | 312.5 µg/plate, 3 days, without S9 |  | revertants per plate | 26.3 revertants/plate |
| CN1CCCNC(=O)c2cccc(c2)C(=O)NCCCN(C)CCCNc2cccc3c2C(=O)c2cccc(c2C3=O)NCCC1 | SAS | RNA-Seq, refers to: ATP1B3 mRNA |  | 1 µM, 6 h | relative to: untreated cells | log2 fold change | -0.768 |

Some of these lines once more:
| SMILES | target or system | test | test system | conditions | scale | quantity | result |
| --- | --- | --- | --- | --- | --- | --- | --- |
| O=C(Oc1cccccc1=O)c1ccc(Cl)cc1 | HepDES19 | cell growth or viability, MTS |  | 72 h |  | CC50 | 99.5 µM |
